Results collected from several papers.
Several values in a cell are separate wells, animals, samples, runs or records.
Target: Dual specificity tyrosine-phosphorylation-regulated kinase 2 (DYRK2, Homo sapiens, UniProt Q92630)
Sequence (Q92630 1-601, as in one of the studies): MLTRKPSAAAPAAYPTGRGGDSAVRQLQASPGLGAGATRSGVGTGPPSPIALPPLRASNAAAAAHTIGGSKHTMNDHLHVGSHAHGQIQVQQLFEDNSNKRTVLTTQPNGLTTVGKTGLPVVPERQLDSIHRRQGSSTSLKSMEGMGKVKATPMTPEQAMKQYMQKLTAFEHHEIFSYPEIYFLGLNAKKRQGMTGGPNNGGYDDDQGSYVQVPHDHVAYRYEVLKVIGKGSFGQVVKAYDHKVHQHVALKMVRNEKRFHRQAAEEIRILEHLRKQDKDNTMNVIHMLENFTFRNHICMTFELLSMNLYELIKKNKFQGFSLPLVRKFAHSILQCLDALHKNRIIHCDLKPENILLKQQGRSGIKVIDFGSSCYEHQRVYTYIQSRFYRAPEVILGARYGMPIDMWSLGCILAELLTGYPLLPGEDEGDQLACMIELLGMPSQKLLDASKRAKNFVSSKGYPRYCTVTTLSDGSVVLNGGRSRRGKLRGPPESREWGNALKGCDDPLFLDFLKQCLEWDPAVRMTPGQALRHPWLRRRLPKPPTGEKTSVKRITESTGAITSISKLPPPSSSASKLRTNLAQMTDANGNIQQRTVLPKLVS

| Structure (SMILES) | assay | setting | scale | endpoint | result |
| --- | --- | --- | --- | --- | --- |
| NC(=O)C[C@H]1CCc2sc3ncnc(O[C@H]4CC[C@H](N5CCOCC5)CC4)c3c21 | enzyme activity, inhibitor | 10 µM |  | inhibition | 3% |
| Cc1cnc2nc1Nc1cccc(c1)COC/C=C/COCc1cc(ccc1OCCN1CCOCC1)N2 | binding | 0.1 µM |  | remaining binding | 84% |
| Cc1cccc(O[C@H]2CCC[C@@H](C(C)CNCc3ccncc3)C2)c1 (relative stereo) | enzyme activity, inhibitor | 10 µM |  | inhibition | -4% |
| O=C(Cc1ccc(OCc2ccccc2)cc1)NC1(C(=O)O)CCN(C(=O)c2ccc(-c3cccc(Cl)c3)cc2)CC1 | enzyme activity, inhibitor | 10 µM |  | activity vs control | 103% |
| COC(=O)[C@@]1(C)C=C(C(=O)Nc2cccc(C(=O)Nc3ccc(Nc4nccc(-c5cccnc5)n4)c(C)c3)c2)C(=O)CC1 | enzyme activity, inhibitor, radiometric | 1 µM |  | remaining activity | 91% |
| C=CC(=O)Nc1cccc(-c2cnc3[nH]cc(C(=O)NC(C)(C)C)c3n2)c1 | kinase activity | 0.1 µM |  | inhibition | 5% and 11% |
| Cc1cccc(-c2ccc3nc(NC(=O)C4CCOCC4)nn3c2)c1 | enzyme activity, Dundee kinase panel | 10 µM |  | remaining activity | 48% |
| Nc1nc(Nc2ccccc2)sc1C(=O)c1ccccc1 | enzyme activity, inhibitor | 10 µM |  | remaining activity | 25% |
| COc1cc(Nc2nccc(-c3cnn4nc(OC)ccc34)n2)cc(C(F)(F)F)c1 | binding, competition with immobilised ligand | 1 µM |  | remaining binding | 71% |
| CCn1cc(C(=O)O)c(=O)c2c(N)c(F)c(NC3CCCCC3)cc21 | kinase activity | 0.1 µM, added: ATP at Km |  | inhibition | 13.5% |
| C=CC(=O)N1CCCC(n2c(=O)c3ncccc3n(Cc3ccc(Oc4ccccc4)cc3)c2=O)C1 (centres unmarked) | cell-free assay, competition with immobilised ligand | 1 µM |  | remaining binding | 86% |
| Cc1cccc(-c2ccc3nc(NC(=O)C4CCCCC4)nn3c2)c1 | enzyme activity, Dundee kinase panel | 10 µM |  | remaining activity | 24% |
| CCN1CCN(Cc2ccc(C(=O)Nc3ccc(C)c(NCc4cnc5[nH]ccc5c4OC)c3)cc2C(F)(F)F)CC1 | binding, competition with immobilised ligand | 1 µM |  | remaining binding | 82% |
| CN1CCN(Cc2ccc(-c3ccc(CO[C@H]4CCC[C@@H]4NC(=O)c4cc(-c5cnn(C)c5)cnc4N)cc3)cc2)CC1 | enzyme activity, inhibitor | 0.1 µM |  | inhibition | 4% |
| CNC(=O)C1CCN(c2cc(C)c(F)cc2NC(=O)c2ccc(-c3cc(O)ccc3C)c(C)c2)CC1 | binding, competition with immobilised ligand | 1 µM |  | remaining binding | 100% |
| CNC1C[S+]2CC[S+]3CC[S+](C1)[Ru-4]321([N]=C=S)[n]2c3ccc(OC)cc3c3c4c(c5cc(F)c[n+]1c5c32)C(=O)NC4=O (centres unmarked) | KinomeScan | 0.1 µM | baseline: untreated | remaining binding | 100% |
| CN1CC[C@@H](COc2cnc(C#N)cc2-c2ccn3nc(NC(=O)C4CC4)cc3c2)C1 | enzyme activity, inhibitor | 1 µM |  | inhibition | 6% |

For quick reference, copied from above:
| Structure (SMILES) | assay | setting | scale | endpoint | result |
| --- | --- | --- | --- | --- | --- |
| C=CC(=O)Nc1cccc(-c2cnc3[nH]cc(C(=O)NC(C)(C)C)c3n2)c1 | kinase activity | 0.1 µM |  | inhibition | 5% and 11% |
